Measurements from different studies.
Each numbered part is a random draw from the data of one study; scales do not carry over between parts. Changes are numbered by the printed parent chain.

Study 1
Target: RNA binding protein fox-1 homolog 2, RRM domain, GST-SBP tag (RBFOX2, Homo sapiens, UniProt O43251-10, residues 100-194)
Method: RNA Bind-n-Seq
Form: RNA
Matrix: in vitro
Tested at: 365 nM
Setting: natural RNA segment, single round, ends assumed
Relative to: no-protein control
Direction: higher = stronger binding
Constant ends, left off below: GGGAGUUCUACAGUCCGACGAUC … UGGAAUUCUCGGGUGCCAA
Target sequence (chain): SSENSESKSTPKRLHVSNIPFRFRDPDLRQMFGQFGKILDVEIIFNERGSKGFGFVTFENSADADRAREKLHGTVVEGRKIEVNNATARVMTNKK
Strand	RBNS enrichment (R)
GUGAUUAUGGAGAUGAUUGGCUCCAUAUUCCACCACGUCAUUCCUUCAACUCACCAGACACCUUUCUUUAGUUGAAAUAAACCAGCAUGACCUGGAGAUCAUGGUGACUG	0.945
UUGAAGCGGACUGCUGCGGAUGCAACUCCCAGCUUGCCCACCGCGGGCUGUCUGCUCUCCCUCCUAGCAGCUGUCACACUGAAGUUUUGUCCUCUGCUGUCUCCUCUGGU	2.05
UUAACCGGAACAUCGUCUAGCUGGUGUUAGGAAUGUUUGCUUAAUUUCCAGACUUUUUUUUAAAAACACAUCGUGGGUUUUUUGAGGCUCCAACCUGAUUAGUGCAUGGU	2.19
GCGAAACAGUGUAACAUUAUUCUGUGUUCUUUAUUAGCUAACUACAAGUGUAUGCUUUCCACUCUGGUUGAUCAUUAGUUCCCUAGUACAUACUUAAAAGUUUACCAAAU	0.726
CUGAGCUAGGGGAAGCUCCUGUCCCUGCAUCUGUGGGCUCUACCUCUGGGCCUGCCACCACGCCCCUGGCUAGUGCACCAAGACCUGCUGCUCCUGCCAGCAACCCACCA	2.66
GAGAUUCUGUUAGAUGAUAUGUCUGACCCAAAUUUAAUCCAUAAUAAAAAAAAAUGGGAGAUUGUUUUCAGGAAUUCAGGGAUGAAAAGAAAGAAUAAUUUCCAUUAAGU	0.687
GGAGACAGCUGGCCAGAAUCGUAUAUGCUGGUUUUAUAACUGUUUUAUUAUUAAAGAGAAGAAAACCAACAAAAACUUGUUUGCUUCUGAUUUUUCUUAAAUUGACAUAU	0.515
CCAACAGGGGAUGCUCAUCACUGGAGACUGCGACUGGGAAGAACACUGCCCCCUCCCUCGGGUUGGGUGGCCCAGCCAGCUGGCCAGCCUCCACUCCCACUCUGCCAGAC	0.342
GUCCUUCUCUGCCAGGCUUGGCACAUGAUGUGAAGAAUAAAUGCCCAAUUCUUACUGUUCAGGUUUGAUGUGGAAUCACAGCUGCAGUGAUAUAUAUUUUUUAUCAGUGC	0.229
UUGCAUCUGUGAGUCCCUCUGGGCGGCUCGUGUACUGAUCGGAUCUGUGAGUCCCUCUGGGCGGCUCGUGUACUGAUCGGAUCGGCACCAUGACACUUCCCCUAGACUGU	0.459
GCUUCUGCCCUAUGUUUCUGUACUUCUAUUUGAACUGGAUAACAGAGAGACAAUCUAAACAUUCUCUUAGGCUGCAGAUAAGAGAAGUAGGCUCCAUUCCAAAGUGGGAA	0.539
CAGCCCAGAGACACAGGAGGCUUCAGGGACAGUGCCCUACUCUAGAAACACCUGCCACUCUAGAUAGUUAGUGUGAGGGAUCCAGGCUUGUGUGAGGGGAAUAAUGUGGA	2.24

Study 2
Target: Histone acetyltransferase KAT6A, winged helix 2, GST fusion (KAT6A, Homo sapiens, UniProt Q92794, residues 85-181)
Method: protein binding microarray
Form: double-stranded DNA, one strand shown
Matrix: in vitro
Tested at: not given
Setting: 8-mer, flanks averaged, mean of 2 arrays, mostly near background
Relative to: not given
Direction: higher = stronger binding
Construct (chain): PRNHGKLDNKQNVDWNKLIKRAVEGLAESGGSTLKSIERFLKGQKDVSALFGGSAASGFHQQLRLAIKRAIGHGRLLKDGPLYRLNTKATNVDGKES
Strand	E-score
GCCAAGAA	0.0313
ACATGTAG	-0.162
CGTTAACC	-0.0759
CGCGGAGC	0.153
AGGGGAAG	-0.0279
GAACCCAA	-0.00853
CCACCGTA	-0.0234
AAGCCAGT	-0.139
CCCTCTAG	-0.0763
AAGCGATG	0.00981
ACACCGGG	0.0248
CTCTCCAG	0.0913
CAAATTGG	-0.0836
AGTCAGCA	0.141
AATGCGCT	0.0193
AAAATTTT	0.0882
TCAAGTGA	-0.0315
ACCTGACG	0.0255
AGTGCGAG	0.0798

Study 3
Target: Fragile X messenger ribonucleoprotein 1, C-terminal low-complexity region (Fmr1, Mus musculus, UniProt P35922)
Method: RNA Bind-n-Seq
Form: RNA
Matrix: in vitro
Tested at: 200 nM
Setting: whole 134-nt RNA, ends assumed
With: 150 mM LiCl
Relative to: input library
Direction: higher = stronger binding
Library: 7-deaza-guanosine replaces G
Constant ends, left off below: GGGAGUUCUACAGUCCGACGAUC … UGGAAUUCUCGGGUGUCAAGG
Strand	log2 enrichment
UUACUACCUCCGCCUUCAUUUCCGUCAGCAAUCCCGGCGCGGGCUCCCCGGCCCCCGCCAGCCCGCCUCCCCUCGCUGUGCCCGGGACCG	1.87
UCCUGUGCUACACAUCGUAUGUACCGAAUCGGGAAAAAAGGGAAAAAAGGAAAAAAGGGAAAGUAUUAUGUUACGCCGUUCGGAUCUGCA	0.152
AGUCCUGUGCUACACAUCGUAUGUACCGAAUCGGGUUUGGGAAAAAAAGGGUUUGGGAAAGUAUUAUGUUACGCCGUUCGGAUCUGCACU	-3.06
UAACUUGAGAGGAGGAUCUGAUGGAUAUGGCAGUGGACGUGGAUUUGGGGAUGGCUAUAAUGGGUAUGGAGGAGGACCUGGAGGUGGCAA	0.445
CUGUGCUACACAUCGUAUGUACCGAAUCGGGGUUUUUGGGGAAAAAGGGGUUUUUUUGGGGAAAGUAUUAUGUUACGCCGUUCGGAUCUG	-1.29
GCAGGAAGUAAAAACAAAUGGAAAUGCUUCGGAUAGUGGCAGGGGUGGGGGUUGCUAAGGAAAGGGUGGGGUGGGAGUGGGUAAAGAGUU	2.1
AGUCCUGUGCUACACAUCGUAUGUACCGAAUCGGGUUUUGGGUUUUGGGGUUUUGGGAAAGUAUUAUGUUACGCCGUUCGGAUCUGCACU	-1.59
UGACCCUGGUGGCAUGCGGGGAGGAAGAGGUGGCCUCAUGGAUCGUGGUGGUCCCGGUGGAAUGUUCAGAGGUGGCCGUGGUGGAGACAG	-0.431
AAGUCCUGUGCUACACAUCGUAUGUACCGAAUCGGGAGGGUUUUUGGGUUUUUGGGAAAGUAUUAUGUUACGCCGUUCGGAUCUGCACUU	-1.5
UCCUCAAGUCCUGUGCUACACAUCGUAUGUACCGAAUCGGGCGGGCGGGCGGAAAGUAUUAUGUUACGCCGUUCGGAUCUGCACUUCCAG	0.685
CCUCAAGUCCUGUGCUACACAUCGUAUGUACCGAAUCGGAAGGAAGGAAGGGAAAGUAUUAUGUUACGCCGUUCGGAUCUGCACUUCCAG	-0.341

Study 4
Organism: Saccharomyces cerevisiae
Effect on: binding
Method: yeast competitive growth sequencing
Form: peptide
Strain: cyclin D1-Cln2 strain
Matrix: peptide tiling library
Direction: direction not given
Sequence	enrichment score
SSEVARHLLFQSHM	-0.312
SAVPLILPQAPSGPSY	2.62
FQDSGYNELKSCSFDN	1.47
GLPDFVFQQQPVESEA	1.85
DTERAHSTLDEDLERW	1.37
KPHVSDEEEEEPPFYH	1.86
PKRAKRKLYTSEISSP	-0.966
SMTDFYHSKRRLIFSK	-0.85
DGCSPIKNWSPMRL	1.59
PKNAKRNLSSEFAN	-0.523

Study 5
Target: ABI1, truncated, D143A, DHFR fusion (Arabidopsis thaliana)
Method: DHFR PCA, deep sequencing
Matrix: yeast
Setting: methotrexate growth selection, single substitutions
With: (+)-ABA 4.8 µM
Relative to: wild-type fitted maximum
Direction: higher = stronger binding
Starting sequence: PYL1, truncated, DHFR fusion (Arabidopsis thaliana); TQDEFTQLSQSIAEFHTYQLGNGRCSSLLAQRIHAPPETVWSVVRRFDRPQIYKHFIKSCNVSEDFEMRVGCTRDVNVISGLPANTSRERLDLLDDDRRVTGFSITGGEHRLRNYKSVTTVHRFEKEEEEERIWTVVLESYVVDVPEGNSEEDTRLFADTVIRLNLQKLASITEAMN; partner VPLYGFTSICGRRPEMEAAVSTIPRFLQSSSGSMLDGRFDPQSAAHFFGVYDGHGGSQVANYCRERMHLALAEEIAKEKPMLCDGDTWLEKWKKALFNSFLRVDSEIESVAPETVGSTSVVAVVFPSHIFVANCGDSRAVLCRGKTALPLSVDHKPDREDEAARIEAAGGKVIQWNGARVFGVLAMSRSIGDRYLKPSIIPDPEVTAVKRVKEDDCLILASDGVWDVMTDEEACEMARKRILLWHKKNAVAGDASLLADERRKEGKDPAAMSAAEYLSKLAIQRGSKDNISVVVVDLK
Change	relative binding score
I133K	70%
T154S	9.74%
V43I	73.7%
R46W	-2.83%
I162D	-8.95%
K168S	82.2%
T160L	62.2%
Q167H	55.1%
N177A	96.2%
M176K	68.4%
K168H	72.8%
V121H	-4.01%
Q31C	16.3%
R24Q	86.4%
R111W	-2.45%
Q7L	69%

Repeated from above (study 3):
Strand	log2 enrichment
CCUCAAGUCCUGUGCUACACAUCGUAUGUACCGAAUCGGAAGGAAGGAAGGGAAAGUAUUAUGUUACGCCGUUCGGAUCUGCACUUCCAG	-0.341
UCCUGUGCUACACAUCGUAUGUACCGAAUCGGGAAAAAAGGGAAAAAAGGAAAAAAGGGAAAGUAUUAUGUUACGCCGUUCGGAUCUGCA	0.152
AGUCCUGUGCUACACAUCGUAUGUACCGAAUCGGGUUUUGGGUUUUGGGGUUUUGGGAAAGUAUUAUGUUACGCCGUUCGGAUCUGCACU	-1.59
CUGUGCUACACAUCGUAUGUACCGAAUCGGGGUUUUUGGGGAAAAAGGGGUUUUUUUGGGGAAAGUAUUAUGUUACGCCGUUCGGAUCUG	-1.29
GCAGGAAGUAAAAACAAAUGGAAAUGCUUCGGAUAGUGGCAGGGGUGGGGGUUGCUAAGGAAAGGGUGGGGUGGGAGUGGGUAAAGAGUU	2.1
